Published values collected from several papers.
± marks the error that the study gave.
CYP3A4: Cytochrome P450 3A4 (CYP3A4, Homo sapiens, UniProt P08684)
UniProt P08684, sequence (whole entry, looked up): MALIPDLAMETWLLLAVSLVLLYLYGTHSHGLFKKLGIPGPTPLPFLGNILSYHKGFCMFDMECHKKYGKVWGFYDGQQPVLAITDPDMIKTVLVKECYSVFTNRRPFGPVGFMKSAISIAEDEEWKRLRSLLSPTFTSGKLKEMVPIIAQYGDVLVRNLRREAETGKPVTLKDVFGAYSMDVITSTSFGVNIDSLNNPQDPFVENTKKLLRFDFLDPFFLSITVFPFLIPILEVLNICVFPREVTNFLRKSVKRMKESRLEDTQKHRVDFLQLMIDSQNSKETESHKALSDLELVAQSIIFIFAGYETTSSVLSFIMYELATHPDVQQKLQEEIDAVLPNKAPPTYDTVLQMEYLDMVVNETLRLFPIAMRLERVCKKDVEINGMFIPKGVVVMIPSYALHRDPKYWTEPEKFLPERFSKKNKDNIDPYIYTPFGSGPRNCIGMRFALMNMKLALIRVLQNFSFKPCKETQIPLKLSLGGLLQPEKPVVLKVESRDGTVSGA
UniProt P08246, sequence (whole entry, looked up): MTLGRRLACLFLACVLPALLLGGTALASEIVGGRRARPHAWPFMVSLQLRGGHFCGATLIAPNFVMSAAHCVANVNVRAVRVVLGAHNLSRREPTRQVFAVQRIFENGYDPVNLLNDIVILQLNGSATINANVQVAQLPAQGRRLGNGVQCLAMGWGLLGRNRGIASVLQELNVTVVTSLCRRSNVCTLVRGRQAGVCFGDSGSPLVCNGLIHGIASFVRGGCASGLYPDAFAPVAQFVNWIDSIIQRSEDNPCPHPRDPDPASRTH
UniProt Q12809, sequence (whole entry, looked up): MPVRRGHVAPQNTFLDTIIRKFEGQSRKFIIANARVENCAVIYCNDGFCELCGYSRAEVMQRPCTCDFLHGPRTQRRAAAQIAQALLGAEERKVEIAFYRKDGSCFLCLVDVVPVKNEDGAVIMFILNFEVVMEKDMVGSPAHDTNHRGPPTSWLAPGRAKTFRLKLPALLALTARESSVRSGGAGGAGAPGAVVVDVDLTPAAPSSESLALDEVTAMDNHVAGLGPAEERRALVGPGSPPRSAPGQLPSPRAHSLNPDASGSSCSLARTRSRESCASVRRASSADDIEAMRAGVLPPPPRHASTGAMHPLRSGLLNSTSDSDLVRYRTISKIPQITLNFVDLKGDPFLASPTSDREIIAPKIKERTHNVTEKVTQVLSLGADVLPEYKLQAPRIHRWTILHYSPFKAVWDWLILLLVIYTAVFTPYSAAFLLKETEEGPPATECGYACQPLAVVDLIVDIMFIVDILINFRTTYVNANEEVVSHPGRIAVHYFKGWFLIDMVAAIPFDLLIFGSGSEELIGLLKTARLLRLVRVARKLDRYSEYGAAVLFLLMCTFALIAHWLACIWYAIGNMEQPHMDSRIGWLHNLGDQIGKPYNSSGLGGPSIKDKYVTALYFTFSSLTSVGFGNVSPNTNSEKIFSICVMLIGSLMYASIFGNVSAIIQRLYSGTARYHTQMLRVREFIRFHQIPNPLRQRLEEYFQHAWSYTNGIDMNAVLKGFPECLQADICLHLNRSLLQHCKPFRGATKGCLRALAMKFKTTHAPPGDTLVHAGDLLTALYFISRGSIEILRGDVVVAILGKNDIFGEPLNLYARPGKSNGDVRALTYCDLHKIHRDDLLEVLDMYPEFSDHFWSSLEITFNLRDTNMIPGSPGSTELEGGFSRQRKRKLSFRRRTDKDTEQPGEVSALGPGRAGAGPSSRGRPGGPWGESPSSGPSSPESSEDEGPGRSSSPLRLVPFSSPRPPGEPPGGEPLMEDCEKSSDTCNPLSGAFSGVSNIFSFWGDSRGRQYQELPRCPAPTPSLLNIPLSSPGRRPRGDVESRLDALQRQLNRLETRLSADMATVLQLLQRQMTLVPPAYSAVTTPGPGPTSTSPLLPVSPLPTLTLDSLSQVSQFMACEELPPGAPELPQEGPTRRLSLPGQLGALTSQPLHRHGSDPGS
UniProt P08835, sequence (whole entry, looked up): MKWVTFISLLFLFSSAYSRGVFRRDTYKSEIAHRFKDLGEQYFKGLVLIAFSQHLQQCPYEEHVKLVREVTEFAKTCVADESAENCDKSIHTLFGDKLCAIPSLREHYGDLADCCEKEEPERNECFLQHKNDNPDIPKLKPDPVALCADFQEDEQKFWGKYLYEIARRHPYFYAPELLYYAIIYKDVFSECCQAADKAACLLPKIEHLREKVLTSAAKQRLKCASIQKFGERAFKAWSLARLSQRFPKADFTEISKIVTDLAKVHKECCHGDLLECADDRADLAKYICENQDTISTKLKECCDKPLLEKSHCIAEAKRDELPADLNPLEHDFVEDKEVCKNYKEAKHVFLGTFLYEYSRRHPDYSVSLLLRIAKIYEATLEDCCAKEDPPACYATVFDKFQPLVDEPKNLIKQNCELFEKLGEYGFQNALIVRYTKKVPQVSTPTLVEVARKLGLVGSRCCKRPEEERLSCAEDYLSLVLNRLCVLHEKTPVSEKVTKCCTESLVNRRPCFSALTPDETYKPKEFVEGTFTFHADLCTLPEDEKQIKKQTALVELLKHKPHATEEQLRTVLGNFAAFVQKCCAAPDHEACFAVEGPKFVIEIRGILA
UniProt Q9NPD5, sequence (whole entry, looked up): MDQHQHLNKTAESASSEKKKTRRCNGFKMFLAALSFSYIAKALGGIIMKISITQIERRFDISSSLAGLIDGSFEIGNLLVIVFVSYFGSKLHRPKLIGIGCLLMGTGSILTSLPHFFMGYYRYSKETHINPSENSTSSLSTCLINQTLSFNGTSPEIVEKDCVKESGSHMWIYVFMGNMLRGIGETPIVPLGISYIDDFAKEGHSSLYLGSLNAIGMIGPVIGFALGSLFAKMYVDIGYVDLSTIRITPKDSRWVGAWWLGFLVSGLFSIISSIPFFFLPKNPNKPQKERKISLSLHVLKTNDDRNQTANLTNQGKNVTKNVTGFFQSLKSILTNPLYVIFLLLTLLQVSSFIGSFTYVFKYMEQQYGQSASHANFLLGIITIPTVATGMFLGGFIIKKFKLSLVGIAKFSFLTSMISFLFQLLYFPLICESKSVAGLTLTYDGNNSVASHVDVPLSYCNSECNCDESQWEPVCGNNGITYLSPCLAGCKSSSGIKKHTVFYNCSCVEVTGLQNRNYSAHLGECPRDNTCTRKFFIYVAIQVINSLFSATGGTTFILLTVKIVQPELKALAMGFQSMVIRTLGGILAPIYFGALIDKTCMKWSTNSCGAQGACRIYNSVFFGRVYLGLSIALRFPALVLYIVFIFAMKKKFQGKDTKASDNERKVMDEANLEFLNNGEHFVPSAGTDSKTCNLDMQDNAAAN
UniProt P61073, sequence (whole entry, looked up): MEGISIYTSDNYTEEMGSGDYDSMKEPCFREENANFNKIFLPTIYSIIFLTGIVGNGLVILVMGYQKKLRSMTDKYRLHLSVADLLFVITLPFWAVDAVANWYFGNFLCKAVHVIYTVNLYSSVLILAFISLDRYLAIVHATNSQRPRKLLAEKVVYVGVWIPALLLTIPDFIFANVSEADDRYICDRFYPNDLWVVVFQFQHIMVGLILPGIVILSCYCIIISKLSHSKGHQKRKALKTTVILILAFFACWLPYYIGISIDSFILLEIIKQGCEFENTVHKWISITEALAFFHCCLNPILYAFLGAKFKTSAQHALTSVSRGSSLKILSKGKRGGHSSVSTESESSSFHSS

For `O=C(NC(CSC(Cc1ccccc1)C(=O)NCCCc1cccnc1)Cc1c[nH]c2ccccc12)c1cccnc1` (centres unmarked), the heme destroyed was 29% (CYP3A4; 16 µM, 2 h, with: 10 mM H2O2; reference: ligand-free enzyme).
`N=C(N)NCCC[C@@H](NC(=O)[C@H](N)Cc1c[nH]c2ccccc12)C(=O)N[C@H](CCCCN)C(=O)N[C@H](Cc1c[nH]c2ccccc12)C(=O)N[C@H](CCCNC(=N)N)C(=O)N[C@H](CCCCN)C(=O)N[C@H](Cc1c[nH]c2ccccc12)C(=O)N[C@H](CCCNC(=N)N)C(=O)N[C@H](CCCCN)C(=O)N[C@H](Cc1c[nH]c2ccccc12)C(=O)N[C@H](CCCNC(=N)N)C(=O)N[C@H](CCCCN)C(N)=O` gave a remaining peptide of greater than 90% (trypsin; RP-HPLC; 6 h, 37 °C).
`CC[C@H](C)[C@H](NC(=O)[C@H](C)NC(=O)[C@H](C)NC(=O)[C@H](C)NC(=O)[C@H](Cc1c[nH]cn1)NC(=O)[C@H](CCCCN)NC(=O)[C@H](C)NC(=O)[C@H](C)NC(=O)[C@H](C)NC(=O)[C@H](CCC(=O)O)NC(=O)[C@H](CCCCN)NC(=O)[C@H](C)NC(=O)[C@H](C)NC(=O)[C@H](C)NC(=O)[C@H](CCC(=O)O)NC(=O)[C@H](C)NC(C)=O)C(=O)N[C@@H](C)C(=O)N[C@@H](C)C(=O)N[C@@H](CS)C(=O)N[C@@H](C)C(N)=O` has a stability enhancement of 0.9 (trypsin; proteolysis resistance; 4 °C, unit not given, with: Ni(II); reference: metal-free HCM).
The tissue uptake of `[64Cu+2].c1ccc(CNCc2ccc(CN3CCCNCCNCCCNCC3)cc2)nc1` is reported as 31.2 ± 1.49 %ID/g (CXCR4; NOD/SCID mouse, U87 and U87-stb-CXCR4 xenografts, liver; iv, 90 min, no blocking dose, ex vivo).
`O=C1Cc2cc(CCN3CCN(C4=NS(=O)(=O)c5ccccc54)CC3)c(Cl)cc2N1` has an inhibition of 6.74% (CYP3A4; inhibitor; 10 µM, pH 7.4).
Under “time to complete cleavage”, `CC[C@H](C)[C@@H]1NC(=O)[C@H](CCC(N)=O)NC(=O)[C@H](CCC(N)=O)NC(=O)[C@@H]2CCCN2C(=O)[C@@H]2CCCN2C(=O)[C@H](CO)NC(=O)[C@H](CCSC)NC(=O)[C@H](CCCNC(=N)N)NC(=O)[C@H]([C@@H](C)O)NC(=O)[C@H]([C@@H](C)O)NC(=O)[C@H](Cc2ccccc2)NC(=O)[C@@H](NC(=O)[C@@H](CO)NC(=O)[C@@H](Cc2ccccc2)NC(=O)[C@@H](CC(C)C)NC(=O)[C@@H]2CCCN2C(=O)[C@@H](CC(C)C)NC(=O)[C@@H](Cc2ccccc2)NC(=O)[C@@H](CCC(=O)O)NC(=O)[C@@H](C)NC(=O)[C@@H](Cc2ccccc2)NC(=O)[C@H](N)C(C)C)CSSC[C@@H](C(=O)N[C@@H](CC(C)C)C(=O)N[C@@H](CC(N)=O)C(N)=O)NC1=O` is recorded as no more than 4 h (chymotrypsin; substrate, RP-HPLC; pH 8.0, 25 °C).
For `CNC(=O)Oc1cc(C)c([S+](C)[O-])c(C)c1` (centres unmarked), the inhibition was less than 0% (CYP3A4; human liver microsomes; 10 µM, pH 7.4, with: midazolam).
The IC30 of `Cn1cc(-c2cccc(CN3CCC4(CC3)COc3c4ccc4c3CN([C@H]3CCC(=O)NC3=O)C4=O)c2)cn1` is reported as 18 µM (KCNH2 (Homo sapiens, UniProt Q12809); ion current, inhibitor, manual patch clamp).
`Cc1cc(C)c(-c2cc(C)c(OP(=O)([O-])OCCC[C@H](C(=O)[O-])N3CCN(CC(=O)[O-])CCN(CP(=O)([O-])O)CCN(CC(=O)[O-])CC3)cc2C)c(C)c1.[Gd+3]` — result for “rotational correlation time”: 7 ns (Albumin (ALB, Homo sapiens, UniProt P02768); albumin binding, variable temperature NMRD fit; albumin-bound complex; 0.1 mM, pH 7.4, fit 5-35 °C data, with: HSA 0.66 mM).
`CC(C)C[C@H](NC(=O)[C@H](C)NC(=O)[C@H](CC(C)C)NC(=O)[C@@H](NC(=O)CNC(=O)[C@H](CC(C)C)NC(=O)[C@@H](N)Cc1ccccc1)C(C)C)C(=O)N[C@@H](CC(C)C)C(=O)NCC(=O)N[C@@H](Cc1ccc(O)cc1)C(=O)N[C@@H](CC(C)C)C(=O)N[C@@H](C)C(=O)N[C@H](C(=O)N[C@@H](CCCNC(=N)N)C(=O)N1CCC[C@H]1C(=O)N[C@@H](Cc1ccccc1)C(=O)N[C@@H](CC(C)C)C(=O)N1CCC[C@H]1C(=O)N[C@@H](CCCCN)C(=O)N[C@@H](CCCCN)C(=O)N[C@@H](CCCCN)C(=O)N[C@@H](CCC(N)=O)C(=O)N[C@@H](CCC(N)=O)C(=O)N[C@@H](CCCCN)C(N)=O)C(C)C` — result for “time to full cleavage”: 100 min (chymotrypsin; proteolytic stability, analytical HPLC; 450 µM, 22 °C, with: chymotrypsin 0.001 mg/mL).
For `CCN(CC)CCOc1ccc(-c2nnn(Cc3ccc(OC)cc3)c2N)cc1`, inhibition read “no inhibition” (CYP3A; concentration not given).
Under “vesicle uptake ratio”, `CC(CCC(=O)NCC(=O)O)C1CCC2C3CCC4CC(OC5OC(C(=O)O)C(O)C(O)C5O)CCC4(C)C3CC(O)C12C` (centres unmarked) is recorded as roughly 4 (ABCC4 (Homo sapiens, UniProt O15439); substrate, membrane vesicle uptake; 0.2 µM, 10 min; reference: ATP over AMP).
For `CC[C@H](C)[C@H](NC(=O)[C@H](CC(C)C)NC(=O)[C@H](CC(N)=O)NC(=O)CNC(=O)[C@H](CO)NC(=O)[C@H](CC(C)C)NC(=O)[C@@H](NC(=O)[C@H](CC(C)C)NC(=O)[C@H](CCC(N)=O)NC(=O)[C@H](CCC(N)=O)NC(=O)[C@H](CC(C)C)NC(=O)[C@H](CC(C)C)NC(=O)[C@H](CCCNC(=N)N)NC(=O)[C@H](Cc1c[nH]cn1)NC(=O)[C@@H]1CCCN1C(=O)[C@H](CC(=O)O)NC(C)=O)C(C)C)C(=O)N[C@@H](CCCCN)C(=O)N[C@@H](CCC(=O)O)C(=O)N[C@@H](C)C(=O)N[C@H](C(=O)N[C@@H](CCCNC(=N)N)C(=O)N[C@@H](CCCNC(=N)N)C(=O)N[C@@H](CC(C)C)C(=O)N[C@@H](Cc1c[nH]cn1)C(=O)N[C@@H](CO)C(=O)N[C@@H](CCCNC(=N)N)C(N)=O)C(C)C`, “time to complete degradation” read no more than 2 h (Chymotrypsinogen A (Bos taurus, UniProt P00766); proteolytic stability, substrate; 100 µM, pH 7.4, with: Chymotrypsinogen A 5 ng/mL).
`CCCS(=O)(=O)c1ccc2[nH]c(NC(=O)OC)nc2c1` gave an inhibition of 21.4% (CYP3A4; inhibitor; 10 µM, pH 7.4).
The kinact of `Cc1c(NC(=O)c2ccc3c(c2)CC[C@@H]2C[C@@](O)(C(F)(F)F)CC[C@@]32Cc2ccccc2)ccc[n+]1[O-]` is reported as 0.027 min⁻¹ (CYP3A4/5, human; inhibitor, time-dependent inhibition, refers to: 1'-hydroxymidazolam formation; pooled human liver microsomes; with: midazolam 23 µM).
`O=C(NC(CSC(Cc1ccccc1)C(=O)NCCCc1cccnc1)Cc1ccc(-c2ccccc2)cc1)c1cccnc1` (centres unmarked) gave a ΔTm of 3 °C (CYP3A4; thermal stability).
The Ki of `CC(=O)OC1(C(C)=O)CCC2C3C=C(CO)C4=CC(=O)CCC4(C)C3CCC21C` (centres unmarked) is reported as 388 ± 207 µM (CYP3A4; substrate; substrate inhibition model).
`Cc1cc(C)c(-c2cc(C)c(OP(=O)([O-])OCCC[C@H](C(=O)[O-])N3CCN(CC(=O)[O-])CCN(CC(=O)[O-])CCN(CC(=O)[O-])CC3)cc2C)c(C)c1.[Gd+3]`: “activation enthalpy of water exchange” 42.2 kJ/mol (Albumin (ALB, Homo sapiens, UniProt P02768); variable temperature NMRD; HSA-bound complex; concentration not given).
`CNC(=O)Oc1cc(C)c(S(C)(=O)=O)c(C)c1` gave an inhibition of 4.83% (CYP3A4; inhibitor; 2 µM, pH 7.4).
`CC[C@H](C)[C@H](NC(=O)[C@H](CCCCN)NC(=O)[C@@H](NC(=O)[C@H](CCC(N)=O)NC(=O)[C@@H](N)CCCNC(=N)N)[C@@H](C)CC)C(=O)N[C@@H](Cc1c[nH]c2ccccc12)C(=O)N[C@@H](Cc1ccccc1)C(=O)N[C@@H](CCC(N)=O)C(=O)N[C@@H](CC(N)=O)C(=O)N[C@@H](CCCNC(=N)N)C(=O)N[C@@H](CCCNC(=N)N)C(=O)N[C@@H](CCSC)C(=O)N[C@@H](CCCCN)C(=O)N[C@@H](Cc1c[nH]c2ccccc12)C(=O)N[C@@H](CCCCN)C(=O)N[C@@H](CCCCN)C(=O)NCC(=O)N[C@@H](CCCCN)C(=O)NCC(=O)N[C@@H](CCC(N)=O)C(=O)N[C@@H](Cc1c[nH]cn1)C(=O)N[C@@H](CCCNC(=N)N)C(=O)O` has an activity reduction of 26% (Neutrophil elastase (ELANE, Homo sapiens, UniProt P08246); refers to: cAMP; 16HBE14o-; 25 µM, 30 min, with: HNE 3 µg/mL).
For `CN1C(=O)[C@@H](Cc2ccc(O)cc2)NC(=O)CNC(=O)[C@H](Cc2ccc3ccccc3c2)NC(=O)[C@H](CCCNC(=N)N)NC(=O)[C@H]1CCCNC(=O)c1ccc(CNC(=O)CN2CCN(CC(=O)O)CCN(CC(=O)O)CCN(CC(=O)O)CC2)cc1` [gallium-68 labelled], the SUVmean was 5.06 (CXCR4 (Homo sapiens, UniProt P61073); PET imaging; human, kidney).
`CC(C)(O)c1ccccc1CC[C@H](c1cccc(/C=C/c2ccc3ccc(Cl)cc3n2)c1)[S+]([O-])CC1(CC(=O)O)CC1` (some centres unmarked) has an inhibition of 48.6% (CYP3A4; human liver microsomes; 10 µM, pH 7.4, with: midazolam).
`N=C(N)NCCC[C@@H]1NC(=O)[C@H](CCCNC(=N)N)NC(=O)[C@H](CCCNC(=N)N)NC(=O)[C@H](CCCNC(=N)N)NC(=O)[C@H](Cc2c[nH]c3ccccc23)NC(=O)[C@H](CCCNC(=N)N)NC(=O)[C@H](CCCNC(=N)N)NC(=O)[C@@H](N)CSSC[C@@H](C(N)=O)NC1=O`: “complete degradation time” 60 min (trypsin; substrate, HPLC; pH 7.4, 37 °C).
Under “remaining parent compound”, `O=C(NCCCCCn1ccc2ccc(F)cc21)Oc1ccccc1F` is recorded as 69 ± 5% (Albumin (ALB, Sus scrofa, UniProt P08835); porcine protein solution 17.5 mg/mL in PBS; 20 µM, 0.5 h, 37 °C).
For `CC(C)(O)c1ccccc1CC[C@H](c1cccc(/C=C/c2ccc3ccc(Cl)cc3n2)c1)S(=O)(=O)CC1(CC(=O)O)CC1`, the metabolised was 17.2% (CYP3A4; human liver fractions; 1 µM, 30 min, pH 7.4).
The uptake ratio of `CC(CCC(=O)NCC(=O)O)C1CCC2C3C(O)CC4CC(OC5OC(C(=O)O)C(O)C(O)C5O)CCC4(C)C3CCC12C` (centres unmarked) is reported as 13.9 ± 0.4 (SLCO1B3 (Homo sapiens, UniProt Q9NPD5); substrate; transfected HEK293 cells; 1 µM, 2 min; reference: wild-type HEK293 cells).

A few entries again:
`O=C1Cc2cc(CCN3CCN(C4=NS(=O)(=O)c5ccccc54)CC3)c(Cl)cc2N1` has an inhibition of 6.74% (CYP3A4; inhibitor; 10 µM, pH 7.4).
Under “time to complete cleavage”, `CC[C@H](C)[C@@H]1NC(=O)[C@H](CCC(N)=O)NC(=O)[C@H](CCC(N)=O)NC(=O)[C@@H]2CCCN2C(=O)[C@@H]2CCCN2C(=O)[C@H](CO)NC(=O)[C@H](CCSC)NC(=O)[C@H](CCCNC(=N)N)NC(=O)[C@H]([C@@H](C)O)NC(=O)[C@H]([C@@H](C)O)NC(=O)[C@H](Cc2ccccc2)NC(=O)[C@@H](NC(=O)[C@@H](CO)NC(=O)[C@@H](Cc2ccccc2)NC(=O)[C@@H](CC(C)C)NC(=O)[C@@H]2CCCN2C(=O)[C@@H](CC(C)C)NC(=O)[C@@H](Cc2ccccc2)NC(=O)[C@@H](CCC(=O)O)NC(=O)[C@@H](C)NC(=O)[C@@H](Cc2ccccc2)NC(=O)[C@H](N)C(C)C)CSSC[C@@H](C(=O)N[C@@H](CC(C)C)C(=O)N[C@@H](CC(N)=O)C(N)=O)NC1=O` is recorded as no more than 4 h (chymotrypsin; substrate, RP-HPLC; pH 8.0, 25 °C).
For `CNC(=O)Oc1cc(C)c([S+](C)[O-])c(C)c1` (centres unmarked), the inhibition was less than 0% (CYP3A4; human liver microsomes; 10 µM, pH 7.4, with: midazolam).
